Results collected from several papers.
Each numbered part is a random draw from the data of one study; scales do not carry over between parts. Substitutions count along the parent as printed.

Study 1
Target: CCNB2, cyclin fold, Cln2 fusion (human)
Method: yeast growth competition, sequencing
Matrix: yeast
Setting: weak parent motif
Baseline: not given
Reading: higher = stronger binding
Quantity: normalised enrichment score
Starting sequence: CDC25A docking peptide (human); PPHRRRLLFACSP
S12E: 0.622
C11D: 0.219
A10S: 0.321
S12A: 0.5
F9A: 0.847
S12K: 0.387
R5Y: 0.0487
R4Q: 0.694
R5D: 0.115
P1E: 0.225
P1C: -0.0193
R4V: 0.658
F9R: 1.21
P13A: 1.14

Study 2
Target: Sal-like protein 4, full length isoform B (SALL4, Homo sapiens, UniProt Q9UJQ4-2, residues 1-616)
Method: universal PBM
Molecule type: double-stranded DNA, one strand shown
Matrix: in vitro
Tested at: not given
Setting: 8-mer, flanks averaged, mean of replicates
Reading: higher = stronger binding
Quantity: E-score
Construct (chain): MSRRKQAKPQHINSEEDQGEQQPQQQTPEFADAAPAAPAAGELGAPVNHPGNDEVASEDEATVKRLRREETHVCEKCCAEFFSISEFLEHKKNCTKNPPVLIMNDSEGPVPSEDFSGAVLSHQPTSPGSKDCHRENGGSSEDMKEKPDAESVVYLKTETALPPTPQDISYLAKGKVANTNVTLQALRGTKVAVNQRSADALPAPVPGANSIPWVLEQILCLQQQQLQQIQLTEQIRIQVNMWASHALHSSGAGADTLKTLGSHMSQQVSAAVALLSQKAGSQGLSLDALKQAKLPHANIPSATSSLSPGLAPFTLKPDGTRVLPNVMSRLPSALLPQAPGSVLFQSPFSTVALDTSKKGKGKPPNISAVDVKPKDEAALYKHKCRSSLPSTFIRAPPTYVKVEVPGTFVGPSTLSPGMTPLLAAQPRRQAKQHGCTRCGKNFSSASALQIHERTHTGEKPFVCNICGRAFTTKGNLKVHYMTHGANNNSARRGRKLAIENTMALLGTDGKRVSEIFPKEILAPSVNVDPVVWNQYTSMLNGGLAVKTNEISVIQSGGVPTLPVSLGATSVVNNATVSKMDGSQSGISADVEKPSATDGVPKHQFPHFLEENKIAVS
ACGTGATG: 0.0398
GACTCAGC: -0.139
CGATTTCC: -0.15
ACTATTTG: 0.252
GAATAATC: 0.224
AAAAACGC: -0.0018
CCTCGAAG: -0.187
CCCACATA: 0.13
TATCCGGA: -0.0206
GCCCAGGC: -0.315
AACTGTTG: 0.0822
CAATAGCC: 0.0243
AAAGCTGA: 0.0676
GAGGTTCC: -0.125
GCACTCTA: -0.0336
TAAAGTAA: 0.223
ACGATAAA: 0.167
ATTAGGAA: 0.198
TAGATTCA: 0.0314
CCCAAAAA: -0.0061
GTACCACA: 0.103
ATGCAGCC: -0.0727
AACGCGTG: -0.086

Study 3
Target: RING finger protein unkempt homolog, zinc fingers 1-6, SBP tag (UNK, Homo sapiens, UniProt Q9C0B0, residues 30-357)
Chain of UniProt Q9C0B0 (30-357, looked up): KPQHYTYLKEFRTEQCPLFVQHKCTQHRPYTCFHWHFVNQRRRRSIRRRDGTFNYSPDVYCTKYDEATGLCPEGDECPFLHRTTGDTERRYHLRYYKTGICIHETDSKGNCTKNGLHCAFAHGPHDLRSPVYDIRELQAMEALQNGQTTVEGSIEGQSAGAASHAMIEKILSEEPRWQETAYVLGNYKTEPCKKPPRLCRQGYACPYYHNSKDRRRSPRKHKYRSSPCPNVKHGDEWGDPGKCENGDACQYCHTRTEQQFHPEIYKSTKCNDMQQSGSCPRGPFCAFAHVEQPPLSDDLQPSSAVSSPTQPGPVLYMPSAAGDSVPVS
Method: RNA Bind-n-Seq
Molecule type: RNA
Matrix: in vitro
Tested at: 100 nM
Setting: RNA with constant flanks, vertebrate orthologous sites, ends assumed
Baseline: input RNA pool
Reading: higher = stronger binding
Quantity: bound/input enrichment
All sequences stand within: GGGAGUUCUACAGUCCGACGAUC … CAACAGAGGAUUGAGCAUCA
AUUCAAACCCGUGGUGCCCUGGCCUCAUGUUGAAGGAGUAGAAGUGGACUUAGAGUCUAUUAGAAGAAAAAACAAGGCCAAACAUGAACAAGAGCGCCAUGCUGGAGGAGAUAACCAGAA: 0.362 ratio
UGGGUUGUUCCUAUUAUUAUCAAGUAGCUGGAAUUGUGAAGGUUGGAGUAGUUAGAUCUUUAGCUUUUAUUCCUUUUUUUUGUAUUACUAUCCAUGUGUAUAAAUUAUUGAUCAUGUUGC: 2.33 ratio
AGCUUCUGGUGACAUUUGGCCCGGCCUUUCAGCAUAUGACAACAGUCCAAGGUCACCCCAUAGUCCUUCUGUUGCUUCCCCACCUAGUCAGAGUUCGUCUUGCUCUGAUGCGCCCUUGCU: 0.539 ratio
UGUUUUUUUUUGCACAUGACAGUGUUUGUAUUGAGGACCUUCCAAGGAAGAGGGGUGCUAUAGCAGUGGUGCCUGGGUGCCUGGCCUCCAGUGUCCCACCUCCUUCACCACCCCACUUGG: 0.283 ratio
ACACCUAUAUUGUGGCAUUUAGUCAACACGGAAGUAGACCAGCUCUGCUGAUUUGAAAUUUAGAUUUUUUUAAUUAUGUACUGGGGACAGGUUUUUGUCGCUUUACAUUGCUUCCUAGUU: 5.08 ratio
CCCCGAUUUUAGAUGUGAUAUCUAGGCUCUCAUUCUAGUUUGUUUUUGUCUUUUCUUGUUUAGAUAUCAAUCUUUUAAAUUCUUGCAUUUUAGUAAGAAAGCUACCUUUUUAUGGAUGUU: 1.85 ratio
UCUAGACAGUUUUAAAGAUACUUCCUCCUAGGAUGCUUUGGCCCUUCAUCUAUUUAAUCGUAGCUACAUAUCUAUUUUUUAUAAAUAGCAGUACACCUUCCAAGGGGACUCGCUUGGUGU: 1.62 ratio
UCUCUGUAGGAUGAAGCUCUUACAUCAGGUGUCACGCGUUUGGAAAACAGAUGGGUUGACUAGCUGUUCUUAUAAAUUACUAUCUCUGGAGCACUACCCUUUGUAUGUCAACAUCACAGU: 0.411 ratio
UUUAUUUCUUCCUUCCUUUUUUUUUUCUUUUGUUCUUUUUUUCUUUUUCUUUUUUUUAGUAGUUUGUUGUUACCCACGCCAUUUUACGUCUCCUUCACUGAAGGGCUAGAGUUUUAACUU: 4.4 ratio
AGUAAUGUGUUUAUUUAUUGUGCAUACGUAUGUGCUAAGGAUUGUGUUAGGGUUGAUAAUUAGUGGAUUGAUUCCACUUUGUCGUAUUGUUUUCAUUAUUGAAAAUAAACGUAACUUUGU: 0.519 ratio
AAGCAUUUUGCCACUUGGAUGCGGUCUGCACAGGAAGCUGCUGACCCCUCCACAAUACCACAUUAAUAUGUUUUUUUUUUAAGAUGUUAGGACCUAACUGAAUUUACUAAAAUGUAAUUA: 0.318 ratio

Single results of other studies
PhoQ, residues 284 288 289 292 302 303 GTAMQF  fold induction (PhoP, residues 12 14 15 18 19 VQALL (Escherichia coli, UniProt P23836); Sort-seq, measured: YFP reporter; E. coli; PhoQ-PhoP variant library, with: 10 µM Mg2+; baseline: high Mg2+ state, higher = stronger signaling): 25.8

For quick reference, copied from above (study 3):
CCCCGAUUUUAGAUGUGAUAUCUAGGCUCUCAUUCUAGUUUGUUUUUGUCUUUUCUUGUUUAGAUAUCAAUCUUUUAAAUUCUUGCAUUUUAGUAAGAAAGCUACCUUUUUAUGGAUGUU: 1.85 ratio
UCUAGACAGUUUUAAAGAUACUUCCUCCUAGGAUGCUUUGGCCCUUCAUCUAUUUAAUCGUAGCUACAUAUCUAUUUUUUAUAAAUAGCAGUACACCUUCCAAGGGGACUCGCUUGGUGU: 1.62 ratio
UCUCUGUAGGAUGAAGCUCUUACAUCAGGUGUCACGCGUUUGGAAAACAGAUGGGUUGACUAGCUGUUCUUAUAAAUUACUAUCUCUGGAGCACUACCCUUUGUAUGUCAACAUCACAGU: 0.411 ratio
UUUAUUUCUUCCUUCCUUUUUUUUUUCUUUUGUUCUUUUUUUCUUUUUCUUUUUUUUAGUAGUUUGUUGUUACCCACGCCAUUUUACGUCUCCUUCACUGAAGGGCUAGAGUUUUAACUU: 4.4 ratio
AGUAAUGUGUUUAUUUAUUGUGCAUACGUAUGUGCUAAGGAUUGUGUUAGGGUUGAUAAUUAGUGGAUUGAUUCCACUUUGUCGUAUUGUUUUCAUUAUUGAAAAUAAACGUAACUUUGU: 0.519 ratio
